Experimental data collected from several papers.
Protocols differ between the studies behind these lines. Numbers after ± are the reported error.
Cell line: HeLa

Compound | observed | technique | time | notes | IC50 [µM]
Cc1c(COc2cc(OCc3cccc(C#N)c3)c(CN3CCCC[C@@H]3C(=O)O)cc2Cl)cccc1-c1cccc(OCCCCCC(=O)NO)c1 | cell growth or viability | CCK-8 | 48 h |  | 14.5
C[C@@H]1CC[C@@H]([C@](O)(CNCc2ccc(F)cc2)COCc2ccccc2)[C@H](OCc2ccccc2)C1 | cell growth or viability | MTT | 72 h |  | 7.15
CCC(=CCc1c(O)cc2c(c1O)C(=O)CC(c1ccc(O)cc1OC)O2)CC (stereo not drawn) | cell growth or viability | MTT | 48 h |  | 21.2
CCCC[N+]1=c2cc3c4cc2[O][Mn-2]1(=[C]=O)(=[C]=O)(=[C]=O)[n+]1ccc(cc1)C(=O)Oc1ccccc1OC(=O)c1cc[n+](cc1)[Mn-2](=[C]=O)(=[C]=O)(=[C]=O)([O]3)[N+]=4CCCC | cell growth | MTT | 48 h | LED photolysed 1 h | 30.9 ± 2.32
Cc1ccc2c(Cl)cc(Cl)c([O-])c2n1.Cc1ccc2c(Cl)cc(Cl)c([O-])c2n1.[Co+2].c1ccc(-c2ccccn2)nc1 | cell growth or viability | MTT | 48 h |  | 4.53
CCOC(=O)/C=C1\S/C(=N\N=C\c2cccc3cc4ccccc4nc23)N(c2ccc([N+](=O)[O-])cc2)C1=O | cell growth or viability | MTT | 48 h |  | 17.9
COc1ccccc1CNC[C@@](O)(COCc1ccccc1)[C@@H]1CC[C@@H](C)C[C@H]1OCc1ccccc1 | cell growth or viability | MTT | 72 h |  | 2.63
CCCCN(C)CC(O)Cn1c2ccc(Br)cc2c2cc(Br)ccc21 (stereo not drawn) | cell growth or viability |  |  |  | 1.41
NCCOc1cc(NC(=O)c2cc(Cl)cc(C(=O)Nc3cc(OCCN)c4ccccc4n3)n2)nc2ccccc12 | cell growth or viability | ATP luminescence | 72 h |  | 1.5
CCCC[N+]1=c2cc3c4cc2[O][Mn-2]1(=[C]=O)(=[C]=O)(=[C]=O)[n+]1ccc(cc1)C(=O)Nc1ccccc1NC(=O)c1cc[n+](cc1)[Mn-2](=[C]=O)(=[C]=O)(=[C]=O)([O]3)[N+]=4CCCC | cell growth | MTT | 48 h | LED photolysed 1 h | 0.78 ± 0.03
NC(=O)c1cn([C@@H]2O[C@H](CO)[C@@H](O)[C@H]2O)c2ncnc(N)c2c1=O | cell growth or viability |  |  |  | 4.74
Cc1c(C)c2cccnc2c2ncccc12 | cell growth or viability | MTT | 48 h |  | > 50
CCCN1C(=O)CS/C1=N\N=C\c1cccc2cc3ccccc3nc12 | cell growth or viability | MTT | 48 h |  | 30.4
Cc1ccnc(-c2cc(C)ccn2)c1.[Co+2].[O-]c1c(I)cc(I)c2cccnc12.[O-]c1c(I)cc(I)c2cccnc12 | cell growth or viability | MTT | 48 h |  | 11.9
CC(=O)NCCOCCOCCNC(=O)c1cc(C(=O)N2CCNCCNCCNCC2)c(O)c(C(=O)N2CCNCCNCCNCC2)c1 | cell growth or viability | MTT | 24 h |  | > 1000
CCC(=CCc1c(O)cc2c(c1O)C(=O)CC(c1ccccc1O)O2)CC (stereo not drawn) | cell growth or viability | MTT | 48 h |  | 36.2
COc1cccc(CNC[C@](O)(COCc2ccccc2)[C@@H]2CC[C@@H](C)C[C@H]2OCc2ccccc2)c1 | cell growth or viability | MTT | 72 h |  | 1.57
Cc1c(COc2cc(OCc3cccc(C#N)c3)c(CN3CCCC[C@H]3C(=O)O)cc2Cl)cccc1-c1cccc(OCCCCCCC(=O)NO)c1 | cell growth or viability | CCK-8 | 48 h |  | > 20

For quick reference, copied from above:
Compound | observed | technique | time | notes | IC50 [µM]
COc1cccc(CNC[C@](O)(COCc2ccccc2)[C@@H]2CC[C@@H](C)C[C@H]2OCc2ccccc2)c1 | cell growth or viability | MTT | 72 h |  | 1.57
